Experimental data from different studies.
Protocols differ between the studies behind these lines. Values joined by “and” are separate records of one study, mostly repeats; a detail may differ. ± gives the spread as reported.
GUK1: GUK1 (Homo sapiens, UniProt Q16774)
Aryl hydrocarbon receptor: Aryl hydrocarbon receptor (Danio rerio, UniProt Q9YGV3)
T1: riboswitch RNA yjdF aptamer (Bacillus subtilis); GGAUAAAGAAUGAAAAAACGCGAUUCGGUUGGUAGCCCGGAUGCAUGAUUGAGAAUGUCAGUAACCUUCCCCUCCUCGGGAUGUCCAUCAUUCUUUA

The reversibility of `CC(C)C[C@H](NC(=O)[C@H](CCc1ccccc1)NC(=O)CN1CCOCC1)C(=O)N[C@@H](Cc1ccccc1)C(=O)N[C@@H](CC(C)C)C(=O)[C@@]1(C)CO1` is reported as 3 ± 1% (Proteasome component C5/PSMB8 (Homo sapiens, UniProt P20618+P28062); inhibitor, jump dilution; 1 h).
`Nc1ncnc2c1ncn2[C@@H]1O[C@H](COP(=O)(O)OP(=O)(O)OP(=O)(O)O)[C@@H](O)[C@H]1O` gave a normalized current of 0.2 and 0.23 and 0.29 (P2X purinoceptor 7 (P2rx7, Rattus norvegicus, UniProt Q64663, I214A/Q143A/R125A); ion current, agonist, two-electrode voltage clamp; Xenopus laevis oocytes; 30 µM, triple mutant; baseline: 100 µM compound response).
For `CCN1CCC[C@H]1CNC(=O)c1c(O)c(Cl)cc(Cl)c1OC`, “log2 fold change” read 0.377 (G-protein coupled receptor family C group 5 member D (GPRC5D, Homo sapiens, UniProt Q9NZD1); β-arrestin recruitment, TANGO luminescence, item: GPRC5D; concentration not given; baseline: basal luminescence).
For `CCCCCCCCCCCCC/C=C/[C@@H](O)[C@H](CO)NC(=O)CCCCCCCCCCCCCCCCC`, “lipid fraction bound” read 33% (Protein SET (SET, Homo sapiens, UniProt Q01105, K222D); lipid binding, GFP pull-down LC-MS/MS; A549 overexpressing GFP-tagged protein; baseline: eluate plus flow-through).
The remaining activity of `COc1cc(Nc2ncc3c(n2)-c2ccc(Cl)cc2C(c2c(F)cccc2OC)=NC3)ccc1C(=O)O` is reported as 98% (PAK4; kinase activity; 1 µM).
`Cc1cc2nc3[nH]c(=O)[nH]c(=O)c3nc2cc1C` gave a Kd of 170 nM (T1, riboswitch RNA yjdF aptamer (Bacillus subtilis); fluorescence titration; together with: 380 nM lumichrome).
For `NC(=O)c1ccc[n+]([C@@H]2O[C@H](COP(=O)([O-])OP(=O)(O)OC[C@H]3O[C@@H](n4cnc5c(N)ncnc54)[C@H](O)[C@@H]3O)[C@@H](O)[C@H]2O)c1`, “dissociation rate constant k6” read at most 0.1 s⁻¹ (Inosine-5'-monophosphate dehydrogenase (Cryptosporidium parvum, UniProt Q8T6T2); dissociation from E-IMP-compound complex, pre-steady-state kinetics; upper limit estimate).
With `Nc1ncnc2c1ncn2[C@@H]1O[C@H](COP(=O)(O)OP(=O)(O)O)[C@@H](O)[C@H]1O` the ΔH was -0.231 kcal/mol (GUK1; ITC; molar ratio 2.388).
For `c1cnn2ncc(-c3ccnc(N4CCC45COC5)n3)c2c1`, the remaining binding was 74% (Tyrosine-protein kinase ABL1 (ABL1, Homo sapiens, UniProt P00519, T315I); KINOMEscan; 1 µM; baseline: control).
`O=S(=O)(O)C1CCNCC1` has an agonist score of 0.96 (GABA-A receptor; alpha-1/beta-2/gamma-2 (Rattus norvegicus, UniProt P18508+P62813+P63138); membrane potential, agonist, QP-DHM fluorescence; HEK293 expressing GABAA; 10 µM; baseline: 10 µM GABA, direction not given).
With `Cc1ncsc1-c1ccc(CNC(=O)[C@@H]2C[C@@H](O)CN2C(=O)[C@@H](NC(=O)C2(F)CC2)C(C)(C)C)c(OCCOCCOCCN2CCN(c3cc(-c4ccccc4O)nnc3N)CC2)c1` the cooperativity factor was 14 (VHL-ElonginB-ElonginC complex human; ternary complex formation, fluorescence polarization; together with: SMARCA4 bromodomain).
`O=C(O)C1CCCNC1` (stereo not drawn) — result for “normalised MST signal”: 0.53 (Sodium- and chloride-dependent taurine transporter (SLC6A6, Homo sapiens, UniProt P31641, G62A); binding, microscale thermophoresis; 1 mM, room temperature, together with: 50 nM labelled protein; higher = more binding).
With `CC[C@H](C)[C@H](NC(=O)[C@H](CCCNC(=N)N)NC(=O)[C@H](Cc1c[nH]cn1)NC(=O)[C@H](CCCNC(=N)N)NC(=O)[C@H](CC(=O)O)NC(=O)[C@@H](N)CC(=O)O)C(=O)N[C@@H](CCC(=O)O)C(=O)N[C@@H](CCC(=O)O)C(=O)N[C@@H](CCCCN)C(=O)N[C@@H](CCCNC(=N)N)C(=O)N[C@@H](CCCCN)C(=O)N[C@@H](CCCNC(=N)N)C(=O)N[C@H](C(=O)N[C@@H](Cc1ccc(O)cc1)C(=O)N[C@@H](CCC(=O)O)C(=O)N[C@H](C(=O)N[C@@H](Cc1ccccc1)C(=O)N[C@@H](CCCCN)C(=O)N[C@@H](CO)C(=O)N[C@H](C(=O)N[C@@H](CCSC)C(=O)N[C@@H](CCCCN)C(=O)N[C@@H](CCCCN)C(=O)N[C@@H](CO)C(=O)N1CCC[C@H]1C(=O)N[C@@H](Cc1ccccc1)C(=O)N[C@@H](CC(N)=O)C(=O)NCC(=O)N1CCC[C@H]1C(=O)O)[C@@H](C)CC)[C@@H](C)O)[C@@H](C)O` the -TΔS was -3.9 ± 0.2 kcal/mol (NF-kappa-B inhibitor alpha (Homo sapiens, UniProt P25963); binding, ITC; 293 K, 150 mM NaCl).
`O=C(O)c1ccc(Nc2ncc3c(n2)-c2ccc(Cl)cc2C(c2c(F)cccc2F)=NC3)cc1` gave a remaining activity of 109% (human WNK2(h); kinase activity; 1 µM).
`Nc1ncnc2c1ncn2[C@@H]1O[C@H](COP(=O)(O)CP(=O)(O)OP(=O)(O)O)[C@@H](O)[C@H]1O` gave a specific binding of 2490 CCPM and 1980 CCPM (P2X purinoceptor 1 (P2RX1, Homo sapiens, UniProt P51575, R139P); saturation binding; HEK293; 130 nM).
`N#Cc1ccc(C[C@@H](Nc2nnc(-c3ccc(F)cc3)o2)C(=O)N2CCc3ccccc32)cc1` — result for activity: “inactive” (N-formyl peptide receptor 2 (FPR2, Homo sapiens, UniProt P25090); cell-based; concentration not given).
With `Nc1nnc(-c2ccccc2O)cc1N1CCN(Cc2ccc(OCCOCCNc3cccc4c3C(=O)N(C3CCC(=O)NC3=O)C4=O)c(F)c2)CC1` (stereo not drawn) the Dmax was 94% (SWI/SNF-related matrix-associated actin-dependent regulator of chromatin subfamily A member 2 (SMARCA2, Homo sapiens, UniProt P51531); degrader, immunoblot; SMARCA4-mutant lung cancer cells; 96 h, median of twelve cell lines).
`Cc1cccc2c1ccc1cc(C(C)C)ccc12` has a fold change of 0.916 (Aryl hydrocarbon receptor; reporter gene, agonist, luciferase reporter; ZF-4; 3333.33 µM; baseline: vehicle control).
`Nc1nc2c(ncn2[C@@H]2O[C@H](COP(=O)(O)O)[C@@H](O)[C@H]2O)c(=O)[nH]1` gave a reaction velocity of 0.0439 µM/s and 0.0127 µM/s and 0.0476 µM/s (GUK1; enzyme activity, NADH-coupled; 31.25 µM, together with: NaCl 50 mM).
The enzyme activity of `O=C(COP(=O)(O)O)[C@@H](O)[C@H](O)[C@H](O)COP(=O)(O)O` is reported as 94.1 and 95.7 and 95.1 (Phosphomannomutase 2 (PMM2, Homo sapiens, UniProt O15305); 0.01 mM, unit not given; baseline: activity at 0 mM set to 100).
For `CN(C)c1nccc(-c2cnn3ncccc23)n1`, the remaining binding was 92% and 60% (Tyrosine-protein kinase ABL1 (ABL1, Homo sapiens, UniProt P00519, Q252H); KINOMEscan; 1 µM; baseline: control).
For `O=C1C[C@@H](c2ccccc2)Oc2cc(O)cc(O)c21`, the fold change was 1.36 (Aryl hydrocarbon receptor; reporter gene, agonist, luciferase reporter; ZF-4; 370.37 µM; baseline: vehicle control).
For `c1ccc(C(NCc2cccnc2)(c2ccccc2)c2ccccc2)cc1`, “slope of normalized current vs voltage” read 3.2 V⁻¹ (Potassium voltage-gated channel subfamily KQT member 1 (KCNQ1, Homo sapiens, UniProt P51787); 100 pM, peak currents above -10 mV).
`O=C(C#Cc1ccc(F)c(F)c1)c1ccccc1Cl` has a binding of 90% (mvfR (Pseudomonas aeruginosa, UniProt Q9I4X0); receptor binding; concentration not given, 1.5 h, together with: PQS at 1:1 ratio; baseline: control).
`CCNC(=O)/C=C/c1cccc(Br)c1`: “remaining transport activity” 0.0746 (Sodium-dependent neutral amino acid transporter B(0)AT1 (SLC6A19, Homo sapiens, UniProt Q695T7); inhibitor, FLIPR membrane potential; CHO-BC cells; 30 µM, unit not given; baseline: no inhibitor).
Under “SOD1 dimer fraction”, `[O-][S+]1CCCCS1` (stereo not drawn) is recorded as 27% (Superoxide dismutase [Cu-Zn] (SOD1, Homo sapiens, UniProt P00441, G94A); LC-MS; brain homogenate; 100 µM, 1 h, 37 °C).
With `CC1CCCN1c1nccc(-c2cnn3ncccc23)n1` (stereo not drawn) the remaining binding was 82% (Tyrosine-protein kinase ABL1 (ABL1, Homo sapiens, UniProt P00519, H396P); KINOMEscan; 1 µM).
`c1coc(-c2n[nH]cc2-c2ccnc3ccccc23)c1`: “log2 fold change” -0.1 (pH-response regulator protein palF/RIM8 (RIM8, Candida albicans, UniProt Q9UW13); kinase binding, MIB/MS competition; Candida albicans lysate; 10 µM; baseline: DMSO, negative = stronger binding).
For `CC(=C/C(=O)O)/C=C/C=C(\C)C1C=C2C(C)(C)CCCC2(C)O1` (stereo not drawn), “plasma membrane localization” read 0.72 (Rhodopsin (RHO, Homo sapiens, UniProt P08100, E181K); immunostaining, item: opsin; COS-7 transfected; 5.00 µM, unit not given; baseline: surface over total stained cells).
The fold change of `c1ccc2c(c1)-c1cccc3c1c-2cc1ccccc13` is reported as 6.68 (Aryl hydrocarbon receptor; reporter gene, agonist, luciferase reporter; ZF-4; 41.15 µM; baseline: vehicle control).
With `CC(=O)OCc1nn(C)c2nc(N)[nH]c(=O)c2c1=O` the melting temperature was 66 °C (Dihydropteroate synthase (folP, Bacteria, UniProt P0AC13); CETSA HiBiT; whole cells).
`CC[C@@H]1[C@H](F)C(=O)N[C@@H]1COc1nccc2cc(C(N)=O)c(OC)cc12` gave an inhibition of 9.2% (Serine/threonine-protein kinase tousled-like 1 (TLK1, Homo sapiens, UniProt Q9UKI8); ATP-site probe binding, ActivX profiling; THP-1 cell lysate; 0.2 mM, Lys2 site).
With `CN(CCCCCCNC(=O)COc1ccc(C2CCC(=O)NC2=O)cc1)Cc1cn(Cc2ccc(C(=O)NO)cc2)c2ccccc12.O=C(O)C(F)(F)F` (stereo not drawn) the degradation was 96% (Protein deacetylase HDAC6 (HDAC6, Homo sapiens, UniProt Q9UBN7); degrader, western blot; MM1.S; 1 µM, 24 h).
